Results of several laboratories.
A part holds a random share of what one study measured. Changes are numbered by the printed parent chain.
UniProt O95819, sequence (whole entry, looked up): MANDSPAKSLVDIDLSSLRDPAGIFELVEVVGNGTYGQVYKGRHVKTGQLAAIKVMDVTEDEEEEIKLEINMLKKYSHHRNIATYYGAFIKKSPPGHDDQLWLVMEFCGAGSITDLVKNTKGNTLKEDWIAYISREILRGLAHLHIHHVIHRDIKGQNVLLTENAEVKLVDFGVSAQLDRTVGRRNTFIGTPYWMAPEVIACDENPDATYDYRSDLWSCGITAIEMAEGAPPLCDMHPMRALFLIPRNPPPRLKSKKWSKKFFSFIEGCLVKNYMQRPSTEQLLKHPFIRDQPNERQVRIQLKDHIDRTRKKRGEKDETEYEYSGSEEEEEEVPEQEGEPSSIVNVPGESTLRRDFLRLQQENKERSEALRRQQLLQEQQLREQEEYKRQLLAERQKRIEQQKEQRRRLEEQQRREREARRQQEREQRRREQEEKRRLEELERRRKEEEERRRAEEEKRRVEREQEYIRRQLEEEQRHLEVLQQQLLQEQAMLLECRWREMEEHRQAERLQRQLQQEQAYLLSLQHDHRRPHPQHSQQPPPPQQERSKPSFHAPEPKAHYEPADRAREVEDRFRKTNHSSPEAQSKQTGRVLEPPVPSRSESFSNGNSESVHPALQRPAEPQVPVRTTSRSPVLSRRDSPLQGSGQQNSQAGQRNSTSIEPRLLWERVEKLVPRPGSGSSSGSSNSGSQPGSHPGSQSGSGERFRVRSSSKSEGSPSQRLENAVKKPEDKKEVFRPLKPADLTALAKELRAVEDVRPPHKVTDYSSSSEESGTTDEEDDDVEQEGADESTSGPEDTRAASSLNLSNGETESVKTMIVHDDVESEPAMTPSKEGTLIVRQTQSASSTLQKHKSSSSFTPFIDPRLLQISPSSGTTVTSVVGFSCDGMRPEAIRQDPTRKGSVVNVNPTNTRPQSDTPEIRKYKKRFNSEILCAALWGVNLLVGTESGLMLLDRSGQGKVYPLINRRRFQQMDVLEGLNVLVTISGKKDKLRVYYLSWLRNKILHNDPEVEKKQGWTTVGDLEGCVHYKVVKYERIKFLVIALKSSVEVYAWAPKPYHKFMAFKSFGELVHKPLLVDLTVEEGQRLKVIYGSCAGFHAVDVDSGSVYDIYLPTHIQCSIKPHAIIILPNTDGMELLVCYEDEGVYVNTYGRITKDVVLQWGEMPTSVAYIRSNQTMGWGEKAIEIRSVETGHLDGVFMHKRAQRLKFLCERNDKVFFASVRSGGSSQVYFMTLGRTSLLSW
UniProt O75385, sequence (whole entry, looked up): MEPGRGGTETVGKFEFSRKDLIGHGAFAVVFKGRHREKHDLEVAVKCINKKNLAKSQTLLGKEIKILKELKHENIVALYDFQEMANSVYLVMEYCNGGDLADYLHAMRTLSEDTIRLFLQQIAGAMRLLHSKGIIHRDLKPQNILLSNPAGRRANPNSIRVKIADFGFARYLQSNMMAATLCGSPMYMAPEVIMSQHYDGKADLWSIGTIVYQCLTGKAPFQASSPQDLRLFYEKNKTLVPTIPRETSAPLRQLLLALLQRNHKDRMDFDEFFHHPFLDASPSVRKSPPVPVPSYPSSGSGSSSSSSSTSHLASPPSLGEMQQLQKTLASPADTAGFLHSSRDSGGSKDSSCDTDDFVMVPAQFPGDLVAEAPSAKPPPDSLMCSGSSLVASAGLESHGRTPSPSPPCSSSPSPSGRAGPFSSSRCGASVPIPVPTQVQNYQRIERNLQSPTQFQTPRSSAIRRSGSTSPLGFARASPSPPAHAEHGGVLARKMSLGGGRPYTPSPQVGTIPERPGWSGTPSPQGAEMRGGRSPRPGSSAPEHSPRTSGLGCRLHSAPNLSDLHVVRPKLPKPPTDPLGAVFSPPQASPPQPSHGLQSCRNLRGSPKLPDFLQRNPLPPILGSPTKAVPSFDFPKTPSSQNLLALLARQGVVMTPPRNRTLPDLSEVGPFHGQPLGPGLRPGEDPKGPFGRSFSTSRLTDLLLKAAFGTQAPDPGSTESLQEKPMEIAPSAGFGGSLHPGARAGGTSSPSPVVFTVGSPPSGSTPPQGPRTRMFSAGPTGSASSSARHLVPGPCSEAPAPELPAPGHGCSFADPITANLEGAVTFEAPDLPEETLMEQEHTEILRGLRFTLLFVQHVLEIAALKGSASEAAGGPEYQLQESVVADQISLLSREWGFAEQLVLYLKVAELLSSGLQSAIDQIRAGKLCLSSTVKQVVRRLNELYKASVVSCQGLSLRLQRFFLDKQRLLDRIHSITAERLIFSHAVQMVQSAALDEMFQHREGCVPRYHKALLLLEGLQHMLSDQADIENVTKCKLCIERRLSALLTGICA
UniProt Q6P2M8, sequence (whole entry, looked up): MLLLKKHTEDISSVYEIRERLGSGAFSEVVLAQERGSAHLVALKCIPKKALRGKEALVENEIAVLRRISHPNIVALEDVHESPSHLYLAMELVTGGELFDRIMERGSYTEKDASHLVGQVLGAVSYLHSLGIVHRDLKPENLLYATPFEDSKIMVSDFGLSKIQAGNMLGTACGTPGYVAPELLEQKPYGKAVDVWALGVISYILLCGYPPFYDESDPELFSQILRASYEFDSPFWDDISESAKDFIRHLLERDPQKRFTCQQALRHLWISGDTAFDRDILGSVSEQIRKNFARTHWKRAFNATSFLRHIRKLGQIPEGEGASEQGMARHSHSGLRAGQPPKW
UniProt Q16659, sequence (whole entry, looked up): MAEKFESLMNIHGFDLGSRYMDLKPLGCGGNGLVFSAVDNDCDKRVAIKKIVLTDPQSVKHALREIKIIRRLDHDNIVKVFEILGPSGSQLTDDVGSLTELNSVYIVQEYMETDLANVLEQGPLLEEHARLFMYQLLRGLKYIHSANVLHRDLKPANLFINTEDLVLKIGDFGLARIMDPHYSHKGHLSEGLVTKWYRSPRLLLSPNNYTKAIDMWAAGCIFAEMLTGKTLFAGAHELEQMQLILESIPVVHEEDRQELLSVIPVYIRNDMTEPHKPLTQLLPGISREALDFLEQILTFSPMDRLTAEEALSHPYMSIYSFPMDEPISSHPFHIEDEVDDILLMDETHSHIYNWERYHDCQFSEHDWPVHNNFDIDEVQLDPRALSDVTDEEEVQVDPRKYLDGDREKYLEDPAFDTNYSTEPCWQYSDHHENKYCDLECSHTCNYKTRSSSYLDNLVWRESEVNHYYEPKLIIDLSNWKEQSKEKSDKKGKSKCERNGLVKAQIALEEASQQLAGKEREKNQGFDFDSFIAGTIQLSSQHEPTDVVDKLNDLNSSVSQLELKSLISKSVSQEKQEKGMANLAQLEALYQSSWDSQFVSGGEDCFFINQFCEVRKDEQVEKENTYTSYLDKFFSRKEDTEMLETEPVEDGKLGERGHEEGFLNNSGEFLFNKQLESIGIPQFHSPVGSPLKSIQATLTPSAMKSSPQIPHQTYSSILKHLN
UniProt P06241, sequence (whole entry, looked up): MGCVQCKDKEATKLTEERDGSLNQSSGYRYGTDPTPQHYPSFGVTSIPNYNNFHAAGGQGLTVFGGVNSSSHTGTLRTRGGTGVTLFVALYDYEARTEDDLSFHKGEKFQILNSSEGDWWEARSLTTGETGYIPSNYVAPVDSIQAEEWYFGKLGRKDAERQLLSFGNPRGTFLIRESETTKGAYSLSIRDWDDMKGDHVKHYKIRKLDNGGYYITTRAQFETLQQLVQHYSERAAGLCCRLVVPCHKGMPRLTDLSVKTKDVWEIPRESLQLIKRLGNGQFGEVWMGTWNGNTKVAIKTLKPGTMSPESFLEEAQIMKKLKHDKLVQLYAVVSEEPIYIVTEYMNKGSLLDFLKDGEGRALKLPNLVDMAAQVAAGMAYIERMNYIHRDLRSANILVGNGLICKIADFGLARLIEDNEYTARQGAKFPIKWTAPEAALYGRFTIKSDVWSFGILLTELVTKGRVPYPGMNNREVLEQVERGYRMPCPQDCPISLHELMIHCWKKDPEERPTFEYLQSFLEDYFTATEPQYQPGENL

Study 1
Target: Prothrombin, mature alpha-thrombin (F2, Homo sapiens, UniProt P00734)
Technique: aptamer microarray, sandwich
Form: DNA with 2'F-ANA
Sample: in vitro
Tested at: 200 nM
Setting: whole 15-mer aptamer, many near background
With: Cy3 exosite-II aptamer, 400 nM
Direction: higher = stronger binding
Sequence: GGTTGGTGTGGTTGG
Modification	mean fluorescence intensity [a.u.]
2'F-ANA at 6 7 10 12 13 15	193
2'F-ANA at 1 2 4 5 7 10 14	51.8
2'F-ANA at 5 9 11 12 15	122
2'F-ANA at 3 6 8 10 12	504
2'F-ANA at 3 4 7 9 12 13 15	708
2'F-ANA at 1 2 3 7 9 11 12 13 14	115
2'F-ANA at 3 7 11 13 14	650
2'F-ANA at 1 2 3 6 7 12 15	387

Study 2
Structure (SMILES): O=C(O)[C@H]1[C@H](Cn2nnc3ccccc3c2=O)CC[C@@H]1C(=O)c1ccc(OCCC2CCOCC2)cc1
Technique: competition with immobilised ligand
Tested at: 1 µM
target	test	remaining binding [%]
Citron Rho-interacting kinase (CIT, Homo sapiens, UniProt O14578)	cell-free assay	77
Proto-oncogene tyrosine-protein kinase Src (SRC, Homo sapiens, UniProt P12931)	cell-free assay	89
Serine/threonine-protein kinase TNNI3K (TNNI3K, Homo sapiens, UniProt Q59H18)	cell-free assay	100
Serine/threonine-protein kinase 3 (STK3, Homo sapiens, UniProt Q13188)	cell-free assay	91
Mitogen-activated protein kinase 6 (MAPK6, Homo sapiens, UniProt Q16659)	cell-free assay	90
Receptor-type tyrosine-protein kinase FLT3, autoinhibited (FLT3, Homo sapiens, UniProt P36888)	cell-free assay	96
Calcium/calmodulin-dependent protein kinase type 1B (PNCK, Homo sapiens, UniProt Q6P2M8)	cell-free assay	46
Serine/threonine-protein kinase 4 (STK4, Homo sapiens, UniProt Q13043)	cell-free assay	98
High affinity nerve growth factor receptor (NTRK1, Homo sapiens, UniProt P04629)	cell-free assay	88
Mitogen-activated protein kinase kinase kinase kinase 4 (MAP4K4, Homo sapiens, UniProt O95819)	cell-free assay	91
Tyrosine-protein kinase receptor UFO (AXL, Homo sapiens, UniProt P30530)	cell-free assay	100
Serine/threonine-protein kinase ULK1 (ULK1, Homo sapiens, UniProt O75385)	cell-free assay	95
Cyclin-dependent kinase-like 5 (CDKL5, Homo sapiens, UniProt O76039)	binding	85
Tyrosine-protein kinase Fyn (FYN, Homo sapiens, UniProt P06241)	cell-free assay	100
Ephrin type-A receptor 2 (EPHA2, Homo sapiens, UniProt P29317)	cell-free assay	93
Tyrosine-protein kinase ABL1, phosphorylated (ABL1, Homo sapiens, UniProt P00519)	cell-free assay	89
Tyrosine-protein kinase JAK2, JH1 (JAK2, Homo sapiens, UniProt O60674)	cell-free assay	75

Study 3
Target: CCNE1, cyclin fold, Cln2 fusion (human)
Technique: yeast growth competition, sequencing
Sample: yeast
Setting: weak parent motif
Reference: not given
Direction: higher = stronger binding
Starting sequence: SLBP docking peptide (human); ARYKRKLLINDFG
Variant	normalised enrichment score
R5M	0.568
G13Y	1.09
I9E	0.39
K4P	-0.383
R5K	0.479
A1R	0.44
D11N	0.228
L8C	0.345

Other studies, line by line
SMILES	target or system	test	test system	conditions	endpoint	result
N#CC(=Cc1ccncc1)c1nc2ccccc2o1		AlphaScreen signal, AlphaScreen counter screen	His6 peptide without bromodomain	50 µM, assay interference check	inhibition	18.4%
CO[C@]12C[C@@H](COC(=O)c3cncc(Br)c3)CN(C)[C@@H]1Cc1cn(C)c3cccc2c13	Huh-7			10 µM, 24 h	viability	97.4%

Some of these lines once more (study 2):
target	test	remaining binding [%]
Mitogen-activated protein kinase 6 (MAPK6, Homo sapiens, UniProt Q16659)	cell-free assay	90
Mitogen-activated protein kinase kinase kinase kinase 4 (MAP4K4, Homo sapiens, UniProt O95819)	cell-free assay	91
Receptor-type tyrosine-protein kinase FLT3, autoinhibited (FLT3, Homo sapiens, UniProt P36888)	cell-free assay	96
Tyrosine-protein kinase receptor UFO (AXL, Homo sapiens, UniProt P30530)	cell-free assay	100
Tyrosine-protein kinase JAK2, JH1 (JAK2, Homo sapiens, UniProt O60674)	cell-free assay	75
